Experimental data pooled from the literature.
Protocols differ between the studies behind these lines. ± gives the spread as reported.
Target: Sodium-dependent dopamine transporter (SLC6A3, Homo sapiens, UniProt Q01959)
Chain of UniProt Q01959 (whole entry, looked up): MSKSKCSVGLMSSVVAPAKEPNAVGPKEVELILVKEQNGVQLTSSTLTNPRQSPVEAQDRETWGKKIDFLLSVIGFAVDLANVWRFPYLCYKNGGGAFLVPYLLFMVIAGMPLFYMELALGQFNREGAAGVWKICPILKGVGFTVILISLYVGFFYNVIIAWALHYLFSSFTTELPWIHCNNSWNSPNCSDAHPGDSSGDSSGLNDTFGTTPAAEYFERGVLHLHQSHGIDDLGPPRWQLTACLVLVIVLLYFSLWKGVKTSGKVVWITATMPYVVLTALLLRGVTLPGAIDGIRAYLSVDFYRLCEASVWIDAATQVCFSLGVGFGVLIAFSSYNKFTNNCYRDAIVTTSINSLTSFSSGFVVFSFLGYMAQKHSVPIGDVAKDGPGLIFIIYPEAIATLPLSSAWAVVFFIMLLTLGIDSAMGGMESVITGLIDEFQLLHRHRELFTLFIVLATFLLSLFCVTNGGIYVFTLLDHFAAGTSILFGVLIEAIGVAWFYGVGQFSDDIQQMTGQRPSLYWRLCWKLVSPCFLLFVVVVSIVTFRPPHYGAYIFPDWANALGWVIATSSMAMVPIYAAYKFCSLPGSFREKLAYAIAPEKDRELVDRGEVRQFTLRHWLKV

`CCN(CC)C(=O)[C@@H]1C=C2c3cccc4[nH]cc(c34)C[C@H]2N(C)C1` gave a Ki of greater than 10 µM (ligand displacement, radioligand).
The EC50 of `CC(C(=O)c1ccc2c(c1)OCO2)N(C)C` (stereo not shown) is reported as greater than 10 µM ([3H]dopamine release, releaser; HEK293 expressing target).
`COc1cc(CC(C)N)ccc1O` (stereo not shown) has an IC50 of 0.13 µM (transporter uptake, inhibitor, radiometric).
With `CCc1ccc2[nH]c3nc(SCCNS(=O)(=O)c4ccc(NC(C)=O)cc4)nnc3c2c1` the IC50 was 3.7 µM (transporter uptake, inhibitor, radiometric).
`COC(=O)[C@H]1C(c2ccc(I)cc2)C[C@@H]2CC[C@H]1N2C` (stereo partly shown) gave a Kd of 0.0094 ± 0.0028 µM (binding, radioligand saturation binding; HEK293 hDAT membranes; 16 h, room temperature).
The IC50 of `COc1cc(CC(C)N)c(OC)cc1C` (single isomer, unassigned; (-)) is reported as greater than 100 µM (transporter uptake, inhibitor, radiometric).
For `CCNC(C)C(=O)c1ccc(Cl)cc1` (stereo not shown), the EC50 was greater than 100 µM ([3H]dopamine release, releaser; HEK293 expressing target).
For `CCN(CC)C(=O)[C@@H]1C=C2c3cccc4[nH]cc(c34)C[C@H]2N(C)C1`, the IC50 was greater than 100 µM (transporter uptake, inhibitor, radiometric).
For `CCCC(NCC)C(=O)c1ccc2c(c1)OCO2` (stereo not shown), the EC50 was greater than 10 µM ([3H]dopamine release, releaser; HEK293 expressing target).
For `CNC(C)C(=O)c1ccc(O)c(OC)c1` (stereo not shown), the IC50 was 0.34 µM (transporter uptake, inhibitor, radiometric).

Repeated from above:
The EC50 of `CC(C(=O)c1ccc2c(c1)OCO2)N(C)C` (stereo not shown) is reported as greater than 10 µM ([3H]dopamine release, releaser; HEK293 expressing target).
